Assay results collected from several papers.
± gives the spread as reported. Where no end group is shown, it is not given here.

Molecule | organism | assay | test system | conditions | how to read | endpoint | value
Cc1ccc(Cn2cc(/C=N/N3C(=O)CSC3=S)c3cc([N+](=O)[O-])ccc32)cc1 | Trypanosoma congolense | – | trypomastigotes, IL3000 | – | – | IC50 | > 58 µM
TDVDAVFLRF-NH2 (C-amide) | Drosophila melanogaster | heart rate | adult heart | 40 nL injected, 1 µM, 10 min | relative to: DMS | inhibition | 76%
CCCN(CCC)CCOc1ccc2c(=O)c3c(F)cc(F)cc3[nH]c2c1 | Plasmodium berghei | – | male C57BL/6 albino mouse | oral, liver stage, luciferase sporozoites | – | fully protective curative dose | 10 mg/kg
TDADHVFLRF-NH2 (C-amide) | Drosophila melanogaster | gut contraction | adult gut | 1 µM, within 10 min | relative to: DMS effect | inhibition | 100%
CC1(C)S[C@@H]2[C@H](NC(=O)[C@H](N)c3ccccc3)C(=O)N2[C@H]1C(=O)O | Micrococcus luteus | microbial growth, disc diffusion | IFO3232 | 100 µg/disc, 24 h | – | inhibition zone | 19 mm
TDVDHAFLRF-NH2 (C-amide) | Drosophila melanogaster | gut contraction | wandering third instar larval gut | injection, 1 µM, within 10 min | relative to: DMS effect | inhibition | 91%
O=C(Nc1ccc(F)c(-c2nc3cc(-c4ccccc4)cnc3[nH]2)c1)N1CCCC1 | Trypanosoma brucei brucei | parasite growth, Alamar Blue | BF427 bloodstream form | – | – | EC90 | 0.002 µM
Cc1cc(C(C#N)c2ccc(Cl)cc2)c(Cl)cc1NC(=O)c1cc(I)cc(I)c1O (stereo not shown) | Haemonchus contortus | – | multidrug-resistant | oral, 10 mg/kg, day 6 post-treatment, together with: moxidectin 0.2 mg/kg | – | faecal egg count reduction | 85%
TDVDHVALRF-NH2 (C-amide) | Drosophila melanogaster | gut contraction | wandering third instar larval gut | injection, 1 µM, within 10 min | relative to: DMS effect | inhibition | 10%
N=C(N)N | Enterovirus D68 | virus yield reduction | RD cells, US/KY/14-18953 | 3 d | – | EC90 | 60 ± 1.3 µM
CO/N=C1\C[C@]2(C[C@@H]3C[C@@H](C/C=C(\C)C[C@@H](C)/C=C/C=C4\CO[C@@H]5[C@H](O)C(C)=C[C@@H](C(=O)O3)[C@]45O)O2)O[C@H](/C(C)=C/C(C)C)[C@H]1C | Haemonchus contortus | – | multidrug resistant, sheep | oral, 0.2 mg/kg, day 6 post-treatment, together with: closantel 10 mg/kg | – | faecal egg count reduction | 91%
CC1(C)S[C@@H]2[C@H](NC(=O)[C@H](N)c3ccc(O)cc3)C(=O)N2[C@H]1C(=O)O | Streptococcus pyogenes | – | hospitalized pneumonia patients, clinical isolates | Fine score 70 or more | – | susceptible isolates | 100%
TDVAHVFLRF-NH2 (C-amide) | Drosophila melanogaster | heart rate | wandering third instar larval heart | 40 nL injected, 1 µM, 10 min | relative to: DMS | inhibition | 27%
CCCCc1cc2c(=O)c(I)c[nH]c2cc1OCCOc1ccccc1 | Plasmodium berghei | – | mouse | oral, 50 mg/kg, day 6, single dose in PEG400 | relative to: untreated | parasitemia inhibition | 19.6%
C[C@H](NC(=O)C(=O)Nc1ccccc1C(C)(C)C)C(=O)N[C@@H](CC(=O)O)C(=O)COc1c(F)c(F)cc(F)c1F | Zika virus | cell proliferation | human neural progenitor cells, brain organoid | concentration not given | relative to: mock | PH3-positive hNPC | 106 ± 10%
CS(=O)(=O)c1ccc(-c2cnc(N)c(-c3ccc(C(F)(F)F)nc3)c2)cc1 | Plasmodium cynomolgi | hypnozoite (small EEF) growth | primary rhesus hepatocytes | day 4, compound added at 96 h | – | IC50 | 7 µM
CC(C)S(=O)(=O)n1c(N)nc2ccc(/C(=N/O)c3ccccc3)cc21 | Enterovirus D68 | virus yield reduction | RD, US/KY/14-18953 | 72 h | – | EC90 | 0.61 ± 0.08 µM

Molecule | organism | assay | test system | conditions | how to read | endpoint | value
Nisin A | Lactococcus lactis | deferred antagonism overlay | 90869, GM17 agar | concentration not given, produced by spotted strain | – | inhibition zone diameter | 7.5 ± 0.38 mm
TDVDHVFLAF-NH2 (C-amide) | Drosophila melanogaster | gut contraction | wandering third instar larval gut | injection, 1 µM, within 10 min | relative to: DMS effect | inhibition | 74%
COc1cccc(/C=C/c2nc3ccc(N4CCCCC4)cc3c(=O)n2-c2cccc(C(C)(C)C)c2)n1 | Zika virus | viral replication, inhibitor | Vero | 0.3 µM | – | inhibition | 0%
CCN(CC)CCCC(C)Nc1ccnc2cc(Cl)ccc12 (stereo not shown) | Plasmodium berghei | – | ANKA, mouse | oral, 3 mg/kg/day for 4 days, day 4 | – | parasitaemia suppression | 87 ± 11%
C/C=C1\NC(=O)[C@H]2CSSCC/C=C/[C@H](CC(=O)N[C@H](C(C)C)C(=O)N2)OC(=O)[C@H](C(C)C)NC1=O | Lucilia cuprina | larval growth | larvae | – | relative to: diflubenzuron IC50 over cpd IC50 | potency ratio | 2 fold
O=C1NC(=S)S/C1=C\c1cn(Cc2ccc(F)cc2)c2ccc([N+](=O)[O-])cc12 | Trypanosoma congolense | – | trypomastigotes, IL3000 | – | – | IC50 | 2.52 ± 0.73 µM
Cc1ncnc2c1c(CCC1CC1)cn2[C@@H]1O[C@H](CO)[C@@H](O)[C@H]1O | Leishmania infantum | parasite growth, imaging | mouse Macrophage | 5 days, intracellular, amastigote | – | EC50 | > 64 µM
gypsogenin | Leishmania mexicana | parasite killing, alamarBlue | axenic amastigotes | 24 h, 33 °C | – | ED50 | < 10.5 µM
GKVKVGVNGFGRIGRLVTRAAFNSGKVDIVA | Candida albicans SC5314 | epithelial damage | peptide, TR146 | 5 µg/mL, 12 h | relative to: untreated infected | LDH release | decreased
CCCN(CCC)CCOc1ccc2c(=O)c3c(Cl)c(Cl)ccc3[nH]c2c1 | Plasmodium berghei | – | male C57BL/6 albino mouse | oral, liver stage, luciferase sporozoites | – | fully protective curative dose | 10 mg/kg
CN(C)CCSc1nnc(C23CC4CC(CC(C4)C2)C3)n1C | Micrococcus luteus | microbial growth, disc diffusion | IFO3232 | 200 µg/disc, 24 h | – | inhibition zone | 10 mm
TDVDHVFARF-NH2 (C-amide) | Drosophila melanogaster | heart rate | adult heart | 40 nL injected, 1 µM, 10 min | relative to: DMS | inhibition | 86%
O=c1c(O)c(-c2cc(O)c(O)c(O)c2)oc2cc(O)cc(O)c12 | Human immunodeficiency virus 1 | viral replication, inhibitor | TZM-bl, NL43 | 11.1 µM | – | inhibition | > 50%
O=C1NC(=S)S/C1=C\c1cn(Cc2cccc(Cl)c2)c2ccc([N+](=O)[O-])cc12 | Leishmania major | parasite growth, resazurin | THP-1 | 72 h, intracellular, amastigote | – | IC50 | 2.73 µM
CC[C@H]1OC(=O)[C@H](C)[C@@H](O[C@H]2C[C@@](C)(OC)[C@@H](O)[C@H](C)O2)[C@H](C)[C@@H](O[C@@H]2O[C@H](C)C[C@H](N(C)C)[C@H]2O)[C@](C)(O)C[C@@H](C)C(=O)[C@H](C)[C@@H](O)[C@]1(C)O | Moraxella | – | community-acquired pneumonia patients | Fine score 70 or more | – | sensitive strains | 100%
O=C1CSC(=S)N1/N=C/c1cn(Cc2cccc(Cl)c2)c2ccc([N+](=O)[O-])cc12 | Trypanosoma congolense | – | trypomastigotes, IL3000 | – | – | IC50 | > 56 µM
GACATACTCT | Salmonella enterica Typhimurium | RNA-seq, refers to: fabF mRNA | peptide, SL1344 | 5 µM, 15 min | relative to: untreated | log2 fold change | -1.2

Excerpt of the above:
Molecule | organism | assay | test system | conditions | how to read | endpoint | value
C[C@H](NC(=O)C(=O)Nc1ccccc1C(C)(C)C)C(=O)N[C@@H](CC(=O)O)C(=O)COc1c(F)c(F)cc(F)c1F | Zika virus | cell proliferation | human neural progenitor cells, brain organoid | concentration not given | relative to: mock | PH3-positive hNPC | 106 ± 10%
CC1(C)S[C@@H]2[C@H](NC(=O)[C@H](N)c3ccc(O)cc3)C(=O)N2[C@H]1C(=O)O | Streptococcus pyogenes | – | hospitalized pneumonia patients, clinical isolates | Fine score 70 or more | – | susceptible isolates | 100%
TDVDHAFLRF-NH2 (C-amide) | Drosophila melanogaster | gut contraction | wandering third instar larval gut | injection, 1 µM, within 10 min | relative to: DMS effect | inhibition | 91%
